Published values from different studies.
Each numbered part is a random draw from the data of one study; scales do not carry over between parts.

Series 1
Target: Histone acetyltransferase KAT6A, winged helix 1, GST fusion (KAT6A, Homo sapiens, UniProt Q92794, residues 1-85)
Technique: protein binding microarray
Form: double-stranded DNA, one strand shown
Sample: in vitro
Concentration: not given
Notes: 8-mer, flanks averaged, mean of 2 arrays, mostly near background
Reference: not given
Reading: higher = stronger binding
Target sequence (chain): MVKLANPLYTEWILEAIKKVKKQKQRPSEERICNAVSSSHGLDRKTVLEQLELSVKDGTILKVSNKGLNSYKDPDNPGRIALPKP
| Sequence | E-score |
| --- | --- |
| ACCGCGCC | 0.402 |
| ATGCGACA | 0.139 |
| CTGGTCGC | 0.174 |
| AAATTCGC | -0.00891 |
| AGGGCACT | -0.219 |

Series 2
Target: RNA binding protein fox-1 homolog 2, RRM domain, GST-SBP tag (RBFOX2, Homo sapiens, UniProt O43251-10, residues 100-194)
Technique: RNA Bind-n-Seq
Form: RNA
Sample: in vitro
Concentration: 365 nM
Notes: natural RNA segment, single round, ends assumed
Reference: no-protein control
Reading: higher = stronger binding
All sequences stand within: GGGAGUUCUACAGUCCGACGAUC … UGGAAUUCUCGGGUGCCAA
Residues (chain): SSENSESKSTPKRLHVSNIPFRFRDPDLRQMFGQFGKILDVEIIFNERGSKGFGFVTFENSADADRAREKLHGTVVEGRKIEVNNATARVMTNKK
| Sequence | RBNS enrichment (R) |
| --- | --- |
| UAUGAUGGCAGGUCCUCUGUUGCAAACUCAGUUCCAAAGUCACAGGAAGAAAGCAGAAAGUUCAACUUCCAAAGGGUUAGGACUCUCCACUCAAUGUCUUAGGUCAGGAG | 0.184 |
| AUAGUAUUUCUGAGUUGAAAGUCGAUGGUGCAAAUAUGUAUAUAACGUACUGUAUUUUUACAAUGAUCGUCGCAUGGCUCUCCCACCCCCUUUUGUACUCAGUAUCUGUC | 0.408 |
| UGUGGCUGAGGACUCAAGGCUGUGAAGACCAGGAGUUCCUGCUCUUGACAUUAUUCCUCCCACUUUGAUCCAGUGUGUGGCUUAUUGUGUUGCCAUGGUAACAGAGAAUC | 0.246 |
| CCCUGUACUUAAGAGGGAGAGGUGGGAGGUGCUGUCUGGUAUCAUUUGCUGCCUCGCCAGUAGAGGGUGCCGCUGUGCAGGGUAACUGCCCGCCUGCUCCCUUCCUGACC | 0.255 |
| CCUUCCUGUCUAGGGAGAAUUGCUGCUAGUAAGGUCAGUUUGCAAUGUUCAGCUUUAGAUAUGUGUCGUAAUGGGAGUCUGAAAACUGUAAUAAACUGUAUUCAUAUCCU | 0.548 |
| UUAAAAAUAAGACGUCCUUCAAAAUGUCUUUUAGUAUCAAUUAAGUUUGUGCAUGAUUGUUUUUAUAUUUCUCAUCAACUACACAACUUUUCCAAGUUAUAAAGUCUACU | 0.617 |

Series 3
Target: Sal-like protein 4, full length isoform B (SALL4, Homo sapiens, UniProt Q9UJQ4-2, residues 1-616)
Technique: universal PBM
Form: double-stranded DNA, one strand shown
Sample: in vitro
Concentration: not given
Notes: 8-mer, flanks averaged, mean of replicates
Reading: higher = stronger binding
Target sequence (chain): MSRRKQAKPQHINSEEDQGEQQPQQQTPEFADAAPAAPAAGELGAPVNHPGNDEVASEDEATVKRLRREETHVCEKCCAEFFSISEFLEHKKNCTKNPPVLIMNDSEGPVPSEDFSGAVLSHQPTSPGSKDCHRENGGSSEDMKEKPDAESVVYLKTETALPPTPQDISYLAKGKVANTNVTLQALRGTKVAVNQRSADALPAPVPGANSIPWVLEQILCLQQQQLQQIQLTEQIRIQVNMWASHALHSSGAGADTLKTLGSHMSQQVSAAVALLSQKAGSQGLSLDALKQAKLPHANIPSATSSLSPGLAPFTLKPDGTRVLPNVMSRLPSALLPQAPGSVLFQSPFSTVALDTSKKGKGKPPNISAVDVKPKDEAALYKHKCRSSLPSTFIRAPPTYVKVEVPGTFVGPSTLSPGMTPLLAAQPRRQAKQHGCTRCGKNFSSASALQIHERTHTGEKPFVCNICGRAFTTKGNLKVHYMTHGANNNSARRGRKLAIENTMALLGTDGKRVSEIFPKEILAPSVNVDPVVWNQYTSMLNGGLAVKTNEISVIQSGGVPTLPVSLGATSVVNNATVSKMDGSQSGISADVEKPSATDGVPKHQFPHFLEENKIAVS
| Sequence | E-score |
| --- | --- |
| TACTCCCA | 0.0593 |
| CGACCACA | -0.226 |
| TCAGTAAA | 0.139 |
| GCACGTCC | -0.18 |
| TAACCAAA | 0.165 |
| GGGCGACA | -0.257 |
| AAAAAATC | 0.257 |
| AGGTCTTC | -0.0744 |

Other studies, line by line
| Substance | target | test | system | setting | how to read | measurement | result |
| --- | --- | --- | --- | --- | --- | --- | --- |
| PhoQ, residues 284 288 289 292 302 303 SMYGEC | PhoP, residues 12 14 15 18 19 NHFRA (Escherichia coli, UniProt P23836) | Sort-seq, measured: YFP reporter | E. coli | PhoQ-PhoP variant library, with: 10 µM Mg2+ | reference: high Mg2+ state, higher = stronger signaling | fold induction | 0.621 |

A few entries again (series 1):
| Sequence | E-score |
| --- | --- |
| CTGGTCGC | 0.174 |
| AAATTCGC | -0.00891 |
| ACCGCGCC | 0.402 |
